Experimental data collected from several papers.
Compare with care: the assays were run in different laboratories.

CC[C@H](C)[C@H](NC(=O)CN)C(=O)N[C@@H](CCCCN)C(=O)N[C@@H](CCCCN)C(=O)N[C@@H](Cc1ccccc1)C(=O)N[C@@H](CC(C)C)C(=O)N[C@@H](CCCCN)C(=O)N[C@@H](CO)C(=O)N[C@@H](C)C(=O)N[C@@H](CCCCN)C(=O)N[C@@H](CCCCN)C(=O)N[C@@H](Cc1ccccc1)C(=O)N[C@H](C(=O)N[C@@H](CCCCN)C(=O)N[C@@H](C)C(=O)N[C@@H](Cc1ccccc1)C(=O)N[C@@H](CCCCN)C(N)=O)C(C)C  retention time (UPLC; TFA water/acetonitrile gradient; longer = more hydrophobic): 1.86 min
CCCC[C@H](NC(=O)[C@@H](NC(=O)[C@H](CCC(=O)O)NC(=O)CNC(=O)[C@@H](NC(=O)[C@H](Cc1ccccc1)NC(=O)[C@]1(C)CCCC=CCCC[C@](C)(NC(=O)[C@H](CCCCN)NC(=O)[C@H](C)NC(=O)[C@H](CO)NC(=O)[C@H](Cc2c[nH]cn2)NC(=O)[C@H](CC(C)C)NC(=O)[C@H](Cc2ccccc2)NC(=O)[C@H](CCCCN)NC(=O)CNC(=O)[C@@H](NC(=O)CN)[C@@H](C)CC)C(=O)N[C@@H](Cc2ccccc2)C(=O)NCC(=O)N[C@@H](CCCCN)C(=O)N1)C(C)C)[C@@H](C)CC)C(=O)N[C@@H](CC(N)=O)C(=O)N[C@@H](CO)C(N)=O  retention time (HPLC C18 column): 13.3 min
CC[C@H](C)[C@H](NC(=O)CN)C(=O)N[C@@H](CCCCN)C(=O)N[C@@H](CCCCN)C(=O)N[C@@H](Cc1ccccc1)C(=O)N[C@@H](CC(C)C)C(=O)N[C@@H](CCCCN)C(=O)N[C@]1(C)CCCCCCC=CCCC[C@@](C)(C(=O)N[C@@H](Cc2ccccc2)C(=O)N[C@@H](CCCCN)C(N)=O)NC(=O)[C@H](CCCCN)NC(=O)[C@H](C(C)C)NC(=O)[C@H](Cc2ccccc2)NC(=O)[C@H](CCCCN)NC(=O)[C@H](CCCCN)NC(=O)[C@H](C)NC1=O  retention time (UPLC; TFA water/acetonitrile gradient; longer = more hydrophobic): 2.6 min
CCCC[C@H](NC(=O)[C@@H](NC(=O)[C@H](CCC(=O)O)NC(=O)CNC(=O)[C@@H](NC(=O)[C@H](Cc1ccccc1)NC(=O)[C@H](C)NC(=O)[C@H](CCCCN)NC(=O)CNC(=O)[C@H](Cc1ccccc1)NC(=O)[C@]1(C)CCCC=CCCC[C@](C)(NC(=O)[C@H](CC(C)C)NC(=O)[C@H](Cc2ccccc2)NC(=O)[C@H](CCCCN)NC(=O)CNC(=O)[C@@H](NC(=O)CN)[C@@H](C)CC)C(=O)N[C@@H](CO)C(=O)N[C@@H](C)C(=O)N[C@@H](CCCCN)C(=O)N1)C(C)C)[C@@H](C)CC)C(=O)N[C@@H](CC(N)=O)C(=O)N[C@@H](CO)C(N)=O  retention time (HPLC C18 column): 13.7 min
CSCC[C@H](NC(=O)[C@H](Cc1ccccc1)NC(=O)CNC(=O)[C@H](CCCCN)NC(=O)[C@H](CCCCN)NC(=O)[C@@H](N)CCC(=O)O)C(=O)N[C@@H](CCC(=O)O)C(=O)N[C@@H](CCCCN)C(=O)N[C@@H](CC(C)C)C(=O)N[C@@H](CCCCN)C(=O)N[C@@H](CCC(=O)O)C(=O)N[C@@H](CCCCN)C(=O)N[C@@H](CC(C)C)C(=O)N1CCC[C@H]1C(=O)NCC(N)=O  retention time (RP-HPLC; C18 column): 14.4 min
CC[C@H](C)[C@H](NC(=O)CN)C(=O)NCC(=O)N[C@@H](CCCCN)C(=O)N[C@@H](Cc1ccccc1)C(=O)N[C@@H](CC(C)C)C(=O)N[C@@H](Cc1c[nH]cn1)C(=O)N[C@@H](CO)C(=O)N[C@@H](C)C(=O)N[C@@H](CCCCN)C(=O)N[C@@H](CCCCN)C(=O)N[C@@H](Cc1ccccc1)C(=O)NCC(=O)N[C@@H](CCCCN)C(=O)N[C@@H](C)C(=O)N[C@@H](Cc1ccccc1)C(=O)N[C@@]1(C)CCCC=CCCC[C@@](C)(C(=O)N[C@@H](CC(N)=O)C(=O)N[C@@H](CO)C(N)=O)NC(=O)[C@H]([C@@H](C)CC)NC(=O)[C@H](CCC(=O)O)NC(=O)CNC1=O  retention time (HPLC C18 column): 12.3 min
CC[C@H](C)[C@H](NC(=O)[C@H](Cc1ccc(O)cc1)NC(=O)[C@@H](N)CC(C)C)C(=O)N[C@@H](CCC(N)=O)C(=O)N[C@@H](CC(N)=O)C(=O)N[C@@H](CC(C)C)C(=O)O  retention time (RP-HPLC C18): 15.9 min
CCCC[C@H](NC(=O)[C@]1(C)CCCC=CCCC[C@](C)(NC(=O)[C@H](C)NC(=O)[C@H](CCCCN)NC(=O)CNC(=O)[C@H](Cc2ccccc2)NC(=O)[C@H](CCCCN)NC(=O)[C@H](CCCCN)NC(=O)[C@H](C)NC(=O)[C@H](CO)NC(=O)[C@H](Cc2c[nH]cn2)NC(=O)[C@H](CC(C)C)NC(=O)[C@H](Cc2ccccc2)NC(=O)[C@H](CCCCN)NC(=O)CNC(=O)[C@@H](NC(=O)CN)[C@@H](C)CC)C(=O)N[C@@H](C(C)C)C(=O)NCC(=O)N[C@@H](CCC(=O)O)C(=O)N1)C(=O)N[C@@H](CC(N)=O)C(=O)N[C@@H](CO)C(N)=O  retention time (HPLC C18 column): 12.1 min
CC[C@H](C)[C@H](NC(=O)[C@H](CC(N)=O)NC(=O)[C@@H](N)CC(C)C)C(=O)N[C@@H](CCC(N)=O)C(=O)N[C@@H](Cc1c[nH]c2ccccc12)C(=O)N[C@@H](CC(C)C)C(=O)O  retention time (RP-HPLC C18): 17.6 min
CC[C@H](C)[C@H](NC(=O)CN)C(=O)N[C@@H](CCCCN)C(=O)N[C@@H](CCCCN)C(=O)N[C@@H](Cc1ccccc1)C(=O)N[C@@H](CC(C)C)C(=O)N[C@@H](CCCCN)C(=O)N[C@@H](CO)C(=O)N[C@@]1(C)CCCC=CCCC[C@@](C)(C(=O)N[C@@H](CCCCN)C(=O)N[C@@H](C)C(=O)N[C@@H](Cc2ccccc2)C(=O)N[C@@H](CCCCN)C(N)=O)NC(=O)[C@H](Cc2ccccc2)NC(=O)[C@H](CCCCN)NC(=O)[C@H](CCCCN)NC1=O  retention time (UPLC; TFA water/acetonitrile gradient; longer = more hydrophobic): 2.38 min
CC[C@H](C)[C@H](NC(=O)[C@H](Cc1ccc(O)cc1)NC(=O)[C@@H](N)CC(C)C)C(=O)N[C@@H](CCC(N)=O)C(=O)N[C@@H](Cc1c[nH]c2ccccc12)C(=O)N[C@@H](CC(C)C)C(=O)O  retention time (RP-HPLC C18): 18.9 min
CC[C@H](C)[C@H](NC(=O)CN)C(=O)N[C@@H](CCCCN)C(=O)N[C@@H](CCCCN)C(=O)N[C@@H](Cc1ccccc1)C(=O)N[C@@H](CC(C)C)C(=O)N[C@@H](CCCCN)C(=O)N[C@@H](CO)C(=O)N[C@]1(C)CCCCCCC=CCCC[C@@](C)(C(=O)N[C@@H](CCCCN)C(N)=O)NC(=O)[C@H](C)NC(=O)[C@H](CCCCN)NC(=O)[C@H](C(C)C)NC(=O)[C@H](Cc2ccccc2)NC(=O)[C@H](CCCCN)NC(=O)[C@H](CCCCN)NC1=O  retention time (UPLC; TFA water/acetonitrile gradient; longer = more hydrophobic): 2.36 min
CC(C)C[C@H](N)C(=O)N[C@@H](Cc1ccc(O)cc1)C(=O)N[C@@H](CCC(N)=O)C(=O)N[C@@H](CCC(N)=O)C(=O)N[C@@H](CC(N)=O)C(=O)N[C@@H](Cc1ccc(O)cc1)C(=O)O  retention time (RP-HPLC C18): 12.8 min
CCCC[C@H](NC(=O)[C@@H](NC(=O)[C@]1(C)CCCC=CCCC[C@](C)(NC(=O)[C@H](CCCCN)NC(=O)CNC(=O)[C@H](Cc2ccccc2)NC(=O)[C@H](CCCCN)NC(=O)[C@H](CCCCN)NC(=O)[C@H](C)NC(=O)[C@H](CO)NC(=O)[C@H](Cc2c[nH]cn2)NC(=O)[C@H](CC(C)C)NC(=O)[C@H](Cc2ccccc2)NC(=O)[C@H](CCCCN)NC(=O)CNC(=O)[C@@H](NC(=O)CN)[C@@H](C)CC)C(=O)N[C@@H](Cc2ccccc2)C(=O)N[C@@H](C(C)C)C(=O)NCC(=O)N1)[C@@H](C)CC)C(=O)N[C@@H](CC(N)=O)C(=O)N[C@@H](CO)C(N)=O  retention time (HPLC C18 column): 13.2 min
CC[C@H](C)[C@H](NC(=O)[C@H](Cc1ccc(O)cc1)NC(=O)[C@@H](N)CC(C)C)C(=O)N[C@@H](CCC(N)=O)C(=O)N[C@@H](CC(N)=O)C(=O)N[C@@H](Cc1ccc(O)cc1)C(=O)O  retention time (RP-HPLC C18): 15 min
CC[C@H](C)[C@H](NC(=O)CNC(=O)[C@H](CCCCN)NC(=O)[C@H](CCCCN)NC(=O)[C@@H](N)CCC(=O)O)C(=O)N[C@@H](CC(C)C)C(=O)N[C@@H](CCC(=O)O)C(=O)N[C@@H](CCCCN)C(=O)N[C@H](C(=O)N[C@@H](CCCCN)C(=O)N[C@@H](CCC(=O)O)C(=O)N[C@@H](CCCCN)C(=O)N[C@@H](CC(C)C)C(=O)N1CCC[C@H]1C(=O)NCC(N)=O)[C@@H](C)CC  retention time (RP-HPLC; C18 column): 14.9 min

Repeated from above:
CCCC[C@H](NC(=O)[C@]1(C)CCCC=CCCC[C@](C)(NC(=O)[C@H](C)NC(=O)[C@H](CCCCN)NC(=O)CNC(=O)[C@H](Cc2ccccc2)NC(=O)[C@H](CCCCN)NC(=O)[C@H](CCCCN)NC(=O)[C@H](C)NC(=O)[C@H](CO)NC(=O)[C@H](Cc2c[nH]cn2)NC(=O)[C@H](CC(C)C)NC(=O)[C@H](Cc2ccccc2)NC(=O)[C@H](CCCCN)NC(=O)CNC(=O)[C@@H](NC(=O)CN)[C@@H](C)CC)C(=O)N[C@@H](C(C)C)C(=O)NCC(=O)N[C@@H](CCC(=O)O)C(=O)N1)C(=O)N[C@@H](CC(N)=O)C(=O)N[C@@H](CO)C(N)=O  retention time (HPLC C18 column): 12.1 min
CC[C@H](C)[C@H](NC(=O)[C@H](CC(N)=O)NC(=O)[C@@H](N)CC(C)C)C(=O)N[C@@H](CCC(N)=O)C(=O)N[C@@H](Cc1c[nH]c2ccccc12)C(=O)N[C@@H](CC(C)C)C(=O)O  retention time (RP-HPLC C18): 17.6 min
